Assay results from different studies.
Each numbered part is a random draw from the data of one study; scales do not carry over between parts.

Block 1 — method: RNA Bind-n-Seq; molecule type: RNA; sample: in vitro; tested at: 365 nM; baseline: no-protein control; reading: higher = stronger binding; measurement: RBNS enrichment (R)
Target: RNA binding protein fox-1 homolog 2, RRM domain, GST-SBP tag (RBFOX2, Homo sapiens, UniProt O43251-10, residues 100-194)
Setting: natural RNA segment, single round, ends assumed
Construct (chain): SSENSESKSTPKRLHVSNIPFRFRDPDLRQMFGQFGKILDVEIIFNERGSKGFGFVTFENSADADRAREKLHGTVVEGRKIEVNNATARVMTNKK
GGGAGUUCUACAGUCCGACGAUCCAGUGCUCUUGAGCUGGGUCUCAGUCCCCUCCCAUGUCCUGUGCUCUGCCGCCACUGUUUUCAUUGUUGUGUUCUCGUUGUGAUUGUUAAGACUCACACUCCUGGCUCAGUGGAAUUCUCGGGUGCCAA: 1.67
GGGAGUUCUACAGUCCGACGAUCCGUUUUCUCCCCGUGUGCUUUCCUGCAGAAUCCUUGCCUUUCCGUUGUUAGGUUGGGUUUUCUAUAUGAAUUAUCAUCUGGAAUUCUGUAGCACACCUCAUAGGUAUGGAUGGAAUUCUCGGGUGCCAA: 0.214
GGGAGUUCUACAGUCCGACGAUCCCCUACAGAACUCCUCAAGAAAACAGAGAUCAUUUGGCUAGAGAUUGUCUGAGUGACUCCAAGCUACUCACUGUAUUGGACGGGAGUAGUAAUUUAUUUUAAAGAUAAAGUGGAAUUCUCGGGUGCCAA: 0.939

Block 2 — method: aptamer microarray, sandwich; molecule type: DNA with 2'F-ANA; sample: in vitro; tested at: 200 nM; added: Cy3 exosite-II aptamer, 400 nM; reading: higher = stronger binding; measurement: mean fluorescence intensity
Target: Prothrombin, mature alpha-thrombin (F2, Homo sapiens, UniProt P00734)
Setting: whole 15-mer aptamer, many near background
GGTTGGTGTGGTTGG (2'F-ANA at 1 7 8 10 11 12): 71.3 a.u.
GGTTGGTGTGGTTGG (2'F-ANA at 3 4 5 7 8 10 13): 110 a.u.
GGTTGGTGTGGTTGG (2'F-ANA at 2 3 4 6 7 10 11 12): 285 a.u.

Block 3 — method: universal PBM; molecule type: double-stranded DNA, one strand shown; sample: in vitro; tested at: 600 nM; reading: higher = stronger binding; measurement: E-score
Target: Sal-like protein 4, full length isoform A (SALL4, Homo sapiens, UniProt Q9UJQ4, residues 1-1053)
Sequence of UniProt Q9UJQ4 (whole entry, looked up): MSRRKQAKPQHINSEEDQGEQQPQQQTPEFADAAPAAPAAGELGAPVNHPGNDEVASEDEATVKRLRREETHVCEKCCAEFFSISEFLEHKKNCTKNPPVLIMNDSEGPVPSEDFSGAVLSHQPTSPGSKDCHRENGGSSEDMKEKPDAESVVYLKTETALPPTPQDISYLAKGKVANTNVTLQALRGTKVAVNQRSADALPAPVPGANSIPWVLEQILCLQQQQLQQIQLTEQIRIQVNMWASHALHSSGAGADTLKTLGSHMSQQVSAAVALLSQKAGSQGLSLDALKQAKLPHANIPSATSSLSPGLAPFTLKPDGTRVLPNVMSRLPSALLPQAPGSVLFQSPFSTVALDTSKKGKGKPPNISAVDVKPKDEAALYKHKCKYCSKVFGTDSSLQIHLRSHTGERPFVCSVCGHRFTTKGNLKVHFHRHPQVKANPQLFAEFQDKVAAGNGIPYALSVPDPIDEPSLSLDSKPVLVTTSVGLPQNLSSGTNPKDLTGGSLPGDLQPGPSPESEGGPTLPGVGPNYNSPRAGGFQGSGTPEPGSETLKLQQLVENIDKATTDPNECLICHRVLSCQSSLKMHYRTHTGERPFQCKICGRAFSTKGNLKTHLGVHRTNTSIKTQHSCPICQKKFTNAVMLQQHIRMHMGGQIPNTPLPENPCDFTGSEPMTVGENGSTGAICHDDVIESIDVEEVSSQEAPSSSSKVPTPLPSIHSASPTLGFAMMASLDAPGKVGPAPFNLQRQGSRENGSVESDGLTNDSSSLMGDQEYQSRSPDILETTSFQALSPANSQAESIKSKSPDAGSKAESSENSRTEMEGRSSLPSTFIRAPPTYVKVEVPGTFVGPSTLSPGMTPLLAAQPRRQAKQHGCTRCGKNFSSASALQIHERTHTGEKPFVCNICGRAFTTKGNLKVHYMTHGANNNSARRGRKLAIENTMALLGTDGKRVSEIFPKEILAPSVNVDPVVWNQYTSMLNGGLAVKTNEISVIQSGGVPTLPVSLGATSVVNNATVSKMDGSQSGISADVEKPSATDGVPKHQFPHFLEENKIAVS
Setting: 8-mer, flanks averaged, mean of replicates
CAGTGCAA: -0.0166
CCGAGGTC: -0.394
ATGTTATG: 0.338
AGCCGCTA: -0.268

Mixed results
PhoQ, residues 284 288 289 292 302 303 SSYNSA
fold induction (PhoP, residues 12 14 15 18 19 QYFSL (Escherichia coli, UniProt P23836); Sort-seq, refers to: YFP reporter; E. coli; PhoQ-PhoP variant library, added: 10 µM Mg2+; baseline: high Mg2+ state, higher = stronger signaling): 10.3

For quick reference, copied from above (block 2):
GGTTGGTGTGGTTGG (2'F-ANA at 3 4 5 7 8 10 13): 110 a.u.
